Results pooled from the literature.
Every numbered part comes from another study and shows a few of its results, in no order. Changes are numbered by the printed parent chain.

Sample 1 — target: CCNB1, cyclin fold, Cln2 fusion (human); method: yeast growth competition, sequencing; matrix: yeast; setting: strong parent motif; reference: not given; reading: higher = stronger binding
Starting sequence: PKN2 docking peptide (human); VSAVRKLDFSDTM; partner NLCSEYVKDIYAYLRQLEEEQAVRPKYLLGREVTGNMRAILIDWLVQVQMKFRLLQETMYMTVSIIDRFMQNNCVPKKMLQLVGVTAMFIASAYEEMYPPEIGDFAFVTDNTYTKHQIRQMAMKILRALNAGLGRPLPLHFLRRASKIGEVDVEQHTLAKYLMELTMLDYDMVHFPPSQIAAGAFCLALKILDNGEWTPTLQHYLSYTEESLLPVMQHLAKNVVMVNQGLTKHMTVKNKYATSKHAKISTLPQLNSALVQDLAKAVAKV
Change	normalised enrichment score
VSAMRKLDFSDTM [V4M]	1.25
VSAVRKLMFSDTM [D8M]	1.24
VSAVRKLDFRDTM [S10R]	2.62
VDAVRKLDFSDTM [S2D]	3.79
VSAVRKLDSSDTM [F9S]	0.161
VSAVRKLDFSDQM [T12Q]	3.69
VSGVRKLDFSDTM [A3G]	0.684
VSAVRKLTFSDTM [D8T]	2.34
VSDVRKLDFSDTM [A3D]	0.255
VNAVRKLDFSDTM [S2N]	4.07
VSAVRKKDFSDTM [L7K]	0.278
VKAVRKLDFSDTM [S2K]	2.37
VSAVRKLDFSDKM [T12K]	3.64
VVAVRKLDFSDTM [S2V]	2.16
VSAVRKLFFSDTM [D8F]	1.86
VSAVRKFDFSDTM [L7F]	-0.206

Sample 2 — method: DHFR PCA, deep sequencing; matrix: yeast; added: (+)-ABA 0.0091 µM; reference: wild-type fitted maximum; reading: higher = stronger binding
Target: ABI1, truncated, D143A, DHFR fusion (Arabidopsis thaliana)
Setting: methotrexate growth selection, single substitutions
Starting sequence: PYL1, truncated, DHFR fusion (Arabidopsis thaliana); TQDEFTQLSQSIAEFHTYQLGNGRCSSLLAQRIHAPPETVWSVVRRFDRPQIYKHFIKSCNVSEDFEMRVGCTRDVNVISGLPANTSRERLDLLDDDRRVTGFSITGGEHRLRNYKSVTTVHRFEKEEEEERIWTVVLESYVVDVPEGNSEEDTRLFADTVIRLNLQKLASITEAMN
Change	relative binding score [%]
R113W	-5.59
C25M	2.98
K54A	1.29
S11R	-1.14
E127I	21.6
S27T	4.11
G108V	-2.74
E109H	13.8
N177H	57.6
N61G	1.58
H55N	14.9
D48K	0.384
F124K	-2.41
A30S	24.3
Q2H	33.8
S140E	-2.14
L94S	1.12
A170T	4.25
L8V	-2.56
L91E	1.6

Sample 3 — method: Sort-seq; measured: YFP reporter; matrix: E. coli; setting: PhoQ-PhoP variant library; added: 10 µM Mg2+; reference: high Mg2+ state; reading: higher = stronger signaling
Molecule: PhoQ, residues 284 288 289 292 302 303 TTSMTC
target	fold induction
PhoP, residues 12 14 15 18 19 STHWV (Escherichia coli, UniProt P23836)	17
PhoP, residues 12 14 15 18 19 QYCSL (Escherichia coli, UniProt P23836)	2.33
PhoP, residues 12 14 15 18 19 SHWTV (Escherichia coli, UniProt P23836)	0.945

Sample 4 — method: RNAcompete; form: RNA; matrix: in vitro; concentration: 20 nM; setting: 7-mer, probes averaged, single round; reference: mean of 7-mers; reading: higher = stronger binding
Target: PABPC1L2, full length, GST fusion (mouse, UniProt A0ABA7IW68)
Construct (chain): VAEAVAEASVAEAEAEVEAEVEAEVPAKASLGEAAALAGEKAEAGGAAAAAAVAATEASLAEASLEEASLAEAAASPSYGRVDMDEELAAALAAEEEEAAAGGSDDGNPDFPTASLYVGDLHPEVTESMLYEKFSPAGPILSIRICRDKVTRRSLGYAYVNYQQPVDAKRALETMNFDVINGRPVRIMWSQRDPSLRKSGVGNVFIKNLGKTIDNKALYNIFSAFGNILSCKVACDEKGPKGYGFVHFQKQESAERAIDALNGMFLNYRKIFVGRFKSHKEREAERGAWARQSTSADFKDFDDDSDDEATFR
Oligonucleotide	7-mer Z-score
AUUAAUG	-0.0808
UGGCUUA	0.0406
CCGUCGC	-0.527
UACGUGA	-0.139
AUCAUUC	-0.248
ACAAUAC	0.189
UGCCUCC	-0.38
AAGGUCG	0.0678
GCCCUAU	-0.318
CAAUAAG	0.0605
CCGCCCA	-0.431
UCGACCG	-0.0609
AGGGUGA	0.135
AGGAUCC	-0.219
CCGCGUC	-0.436
GAUGAGU	-0.262
CUGCGAU	-0.139
CUUGACA	-0.309
ACCUACU	-0.204
GCCUAUG	-0.193
CCACGUC	-0.369
CCUCUCA	-0.431
AGACCCC	-0.405
UUCUUUC	-0.351
UCGCCUC	-0.507

Sample 5 — method: RNA Bind-n-Seq; form: RNA; matrix: in vitro; concentration: not given; setting: RNA with constant flanks, ends assumed; reference: input RNA pool; reading: higher = stronger binding
Target: RING finger protein unkempt homolog, zinc fingers 1-6, GST-SBP tag (UNK, Homo sapiens, UniProt Q9C0B0, residues 30-357)
Residues (chain): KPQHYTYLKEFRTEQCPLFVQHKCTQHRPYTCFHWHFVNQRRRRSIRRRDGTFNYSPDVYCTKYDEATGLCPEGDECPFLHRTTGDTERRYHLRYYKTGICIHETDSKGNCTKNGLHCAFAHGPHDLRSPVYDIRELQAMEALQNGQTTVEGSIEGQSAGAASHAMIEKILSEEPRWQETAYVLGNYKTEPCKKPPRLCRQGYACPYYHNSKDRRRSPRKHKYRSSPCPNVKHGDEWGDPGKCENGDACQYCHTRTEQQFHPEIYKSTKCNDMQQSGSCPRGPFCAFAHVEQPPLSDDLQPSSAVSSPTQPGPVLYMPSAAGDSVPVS
Oligonucleotide	bound/input enrichment [ratio]
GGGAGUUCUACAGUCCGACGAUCUACGUGUGCCAGAGACUGGGUGUCAGCCAUAUCAUCACCGAGCCCAAAGAAGAGGCCAUCCGCACAAAUGAAGUCAUAAACCAGUUACUGCACCAUGUUGGCGCCAUGUGCAUUCACCAGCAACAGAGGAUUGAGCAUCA	0.149
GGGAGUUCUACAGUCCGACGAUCCUGCAACCAACCUCAGGAUGCUAUUAAAUGCUAUUUAAAUGCAACUAGAAGCAAAAAUUGCCGUAAUACCUCUGGACUUGCAGCACGAAUUAAGUAUUUACAGAAUACUUCUGAUAAUUGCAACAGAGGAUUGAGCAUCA	0.23
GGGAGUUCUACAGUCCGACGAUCGGAGUUUUUUAACUGAUUUAGCCAGGUGGCAAUCAUGAGUGAAUGGAUGAAGAAAGGCCCCUCCGAAUGGCAAGAUUACAUUUACAAAGAGGUCCGAGUGACAGCCAGUGAGAAGAAUGACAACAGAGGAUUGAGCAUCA	0.369
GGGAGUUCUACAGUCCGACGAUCUAUCAUAAUGUGUAUACUCGAGAUCCUAAUUAUCUCAAUUUGUUCAUUAUUGUAAUGGAGAACCGUAAUCUCCACAGUCCUGAAUAUCUGGAAAUGGCGUUGCCAUUAUUUUGCAAAGCUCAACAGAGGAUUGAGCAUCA	0.267
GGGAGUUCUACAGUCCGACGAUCUGCACAGACCUCCUGAAUAAGGCCAACACGUAUGCAGAACAACAUUUUGCAGAUGUCGUACUCCGUGAAGAGUUUCUUAACCUCGGCAUCGAGCAGGUGUGCAGCUUAAUCUCCAGUGAUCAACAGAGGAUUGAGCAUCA	0.079
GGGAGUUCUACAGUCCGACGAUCCAGUGGGAUGGGGAGCAAAGUCCCAGAGGGGAGCGCAACAGGUGGAAGUAUGAGGAGUUUUCCGAUCAUCCAGGCCAUAUCCACAGUAGUCCUUGCCACGAAAGGCCCAACAAUGUCUCUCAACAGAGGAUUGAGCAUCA	0.104
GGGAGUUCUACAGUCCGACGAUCAAGGAUGCAAGGUCCGAUUCCUGGCAGCUCGUGCAGACCCAGUGCCUACCUUCCUCUUCCAACCGCAUUGGCUGCUCCCCGUUCCAGUUCCAUGAAGCCACCAUUUAUAAUGCUGUCAACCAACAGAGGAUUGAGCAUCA	0.116
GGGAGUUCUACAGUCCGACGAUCCUUUGAAAGAUGAACAGUGUAGCCUGUCUGAAACUGUAGAGCCUUCAGGUGUCUUUAUUUAACCGGUUGGGAGUGUGCAAGGGCUUCCUUAGCAGGGACAGAAGGCAAUCCUUUCAUGGUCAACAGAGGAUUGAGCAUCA	0.291
